{"data": "Experimental data gathered from unrelated publications", "note": "Parts stem from different laboratories: compare values within a part only."}
{"data": "Sample 1", "target": "Interferon regulatory factor 5, full length, phosphomimetic (IRF5, Homo sapiens, UniProt Q13568-2, residues 1-514, S451D/S453D/S456D/S462D)", "method": "protein-binding microarray", "form": "double-stranded DNA, one strand shown", "medium": "in vitro", "tested at": "940 nM top", "setting": "60-bp whole probe", "added": "salmon DNA 0.4 mg/ml", "relative to": "random background probes", "direction": "higher = stronger binding", "shared flanks, not repeated": "GCCTAGCAC … GTCTTGATTCGCTTGACGCTGCTG"}
{"Sequence": "TTAGGTTTCGGGTCTGGGTTAGTGCTA", "fitted relative affinity [z-score]": 10.4}
{"Sequence": "TTAGATATCAGACTGGATTGGTGCTAG", "fitted relative affinity [z-score]": -0.289}
{"Sequence": "GACGGTCTCGGTAGCGGGACGTGCTAG", "fitted relative affinity [z-score]": 2.9}
{"Sequence": "TTAGGACTAGGTCTCGGTTAGTGCTAG", "fitted relative affinity [z-score]": 1.23}
{"Sequence": "AAATCTAAAAAGTCTCTGGGAGTGCTA", "fitted relative affinity [z-score]": -0.244}
{"data": "Sample 2", "target": "Sal-like protein 4, full length isoform A (SALL4, Homo sapiens, UniProt Q9UJQ4, residues 1-1053)", "method": "universal PBM", "form": "double-stranded DNA, one strand shown", "medium": "in vitro", "tested at": "600 nM", "setting": "8-mer, flanks averaged, mean of replicates", "direction": "higher = stronger binding", "chain of UniProt Q9UJQ4 (whole entry, looked up)": "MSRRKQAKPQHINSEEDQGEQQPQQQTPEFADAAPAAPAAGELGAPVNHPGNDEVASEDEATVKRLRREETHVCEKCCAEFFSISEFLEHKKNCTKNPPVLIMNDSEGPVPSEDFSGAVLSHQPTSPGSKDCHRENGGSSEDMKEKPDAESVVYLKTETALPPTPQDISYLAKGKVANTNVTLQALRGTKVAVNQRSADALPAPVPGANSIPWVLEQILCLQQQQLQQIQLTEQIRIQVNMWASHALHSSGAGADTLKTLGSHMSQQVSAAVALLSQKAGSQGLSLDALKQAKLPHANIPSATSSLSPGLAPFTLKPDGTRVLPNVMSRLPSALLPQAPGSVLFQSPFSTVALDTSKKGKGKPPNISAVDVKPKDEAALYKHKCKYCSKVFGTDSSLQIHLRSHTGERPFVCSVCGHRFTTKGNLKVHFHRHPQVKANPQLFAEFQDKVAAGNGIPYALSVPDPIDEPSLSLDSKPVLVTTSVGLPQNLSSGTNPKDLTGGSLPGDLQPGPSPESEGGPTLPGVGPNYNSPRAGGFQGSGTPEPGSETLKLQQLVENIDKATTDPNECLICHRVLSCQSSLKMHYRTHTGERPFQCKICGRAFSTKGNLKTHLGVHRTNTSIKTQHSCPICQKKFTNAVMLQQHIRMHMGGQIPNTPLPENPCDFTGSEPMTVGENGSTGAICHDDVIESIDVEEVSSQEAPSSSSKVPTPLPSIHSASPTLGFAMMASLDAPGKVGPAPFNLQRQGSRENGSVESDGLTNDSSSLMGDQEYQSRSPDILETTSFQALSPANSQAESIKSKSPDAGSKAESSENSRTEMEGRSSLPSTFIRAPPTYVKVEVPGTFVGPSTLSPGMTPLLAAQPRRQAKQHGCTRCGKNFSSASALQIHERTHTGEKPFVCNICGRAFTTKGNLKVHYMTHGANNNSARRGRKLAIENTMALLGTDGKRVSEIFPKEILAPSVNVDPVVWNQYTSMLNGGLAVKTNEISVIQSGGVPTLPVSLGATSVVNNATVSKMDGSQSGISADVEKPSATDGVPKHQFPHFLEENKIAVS"}
{"Sequence": "AGGTCTTG", "E-score": -0.148}
{"Sequence": "ATAGGCAT", "E-score": 0.151}
{"Sequence": "AAGAGCAG", "E-score": -0.0534}
{"Sequence": "ATTTATTC", "E-score": 0.358}
{"Sequence": "TAAGGTCA", "E-score": 0.0933}
{"data": "Sample 3", "target": "Histone acetyltransferase KAT6A, both winged helices, GST fusion (KAT6A, Homo sapiens, UniProt Q92794, residues 1-181)", "method": "protein binding microarray", "form": "double-stranded DNA, one strand shown", "medium": "in vitro", "tested at": "not given", "setting": "8-mer, flanks averaged, mean of 2 arrays, mostly near background", "relative to": "not given", "direction": "higher = stronger binding", "Target sequence (chain)": "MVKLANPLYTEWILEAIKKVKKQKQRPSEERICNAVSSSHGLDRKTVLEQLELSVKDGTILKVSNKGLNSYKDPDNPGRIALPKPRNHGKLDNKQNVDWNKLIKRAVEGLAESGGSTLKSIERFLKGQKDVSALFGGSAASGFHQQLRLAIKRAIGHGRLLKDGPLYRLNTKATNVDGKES"}
{"Sequence": "CAGCATCA", "E-score": -0.212}
{"Sequence": "CAGTAGAC", "E-score": -0.0515}
{"Sequence": "AGCCCCTA", "E-score": -0.31}
{"Sequence": "TCAGTAGA", "E-score": -0.0584}
{"data": "Other studies, line by line"}
{"Substance": "PhoQ, residues 284 288 289 292 302 303 NLGVHL", "target": "PhoP, residues 12 14 15 18 19 DLLYY (Escherichia coli, UniProt P23836)", "test": "Sort-seq, refers to: YFP reporter", "system": "E. coli", "conditions": "PhoQ-PhoP variant library, added: 10 µM Mg2+", "scale": "relative to: high Mg2+ state, higher = stronger signaling", "measurement": "fold induction", "value": 12.1}
{"note": "Excerpt of the above (sample 2):"}
{"Sequence": "ATTTATTC", "E-score": 0.358}
